Measurements gathered from unrelated publications.

`N#Cc1cnc2cc(OCC3CCNCC3)c(F)cc2c1Nc1cc(F)c(OCc2cccc(Cl)n2)cc1Cl` gave a bioavailability of 35% (female CD-1 mouse, plasma; oral, 20 mg/kg).
`CCS(=O)(=O)c1ccccc1C(=O)N1CCN(c2nc3ccc(F)cc3s2)C[C@@H]1C` has a bioavailability of 72% (mouse, plasma; oral, 3 mg/kg).
`O=C(O)c1ccc(/C=C2\SC(=S)N(Cc3cccc(C(F)(F)F)c3)C2=O)cc1` has a bioavailability of 72% (C57BL/6 mouse, blood; oral, 10 mg/kg).
`COC(=O)c1ccc2c(c1)NC(=O)/C2=C(\Nc1ccc2c(c1)CCN2C(=O)CN1CCOCC1)c1ccccc1` gave a bioavailability of 51% (CD-1 mouse, plasma; oral, 50 mg/kg).
For `NC(=O)c1ccc(C(=O)NOCc2ccc(Sc3cccc(Cl)c3)c(C(F)(F)F)c2)cc1`, the bioavailability was 55.8% (male CD-1 mouse, plasma; intraperitoneal, 30 mg/kg).
For `CCC(=O)N(C)c1ccc(Cl)c(Cl)c1`, the bioavailability was 82.6% (female C57BL/6 mouse, plasma; subcutaneous, 2 mg/kg).
For `COC1C=COC2(C)Oc3c(C)c(O)c4c(c3C2=O)C2=NC3(CCN(CC(C)C)CC3)NC2=C(NC(=O)C(C)=CC=CC(C)C(O)C(C)C(O)C(C)C(OC(=O)c2cccnc2)C1C)C4=O` (stereo not drawn), the bioavailability was 78.7% (female CD-1 mouse, plasma; oral, 10 mg/kg).
`C=CCC1C(=O)C=C(OC)C2(OC)C(C)C(c3ccc4c(c3)OCO4)OC12` (single isomer, unassigned; (-)) has a bioavailability of 10.9% (male C57BL/6 mouse, blood; oral, 10 mg/kg).
`COCc1nc(C(F)(F)F)[nH]c1-c1cc(C(=O)N2CC(c3ccc(C#N)cc3)C2)c(C)cc1C` gave a bioavailability of 125% (mouse, plasma; oral, 10 mg/kg).
For `COC1C=COC2(C)Oc3c(C)c(O)c4c(c3C2=O)C2=NC3(CCN(CC(C)C)CC3)NC2=C(NC(=O)C(C)=CC=CC(C)C(O)C(C)C(O)C(C)C(OC(=O)Nc2cscn2)C1C)C4=O` (stereo not drawn), the bioavailability was 52.7% (female CD-1 mouse, plasma; oral, 10 mg/kg).
`C=CC(=O)Nc1cccc(Cn2ncc3cnc(Nc4cnn(CCOC)c4)nc32)c1` has a bioavailability of 24.7% (male BALB/c mouse, plasma; oral, 30 mg/kg).
`C=C(C)C(=O)Nc1ccc(-c2c(-c3ccc(Oc4nccc(C)n4)cc3)c3c(N)ncnc3n2C)cc1` gave a bioavailability of 74% (nude mouse, plasma; oral).
The bioavailability of `COC1C=COC2(C)Oc3c(C)c(O)c4c(c3C2=O)C2=NC3(CCN(CC(C)C)CC3)NC2=C(NC(=O)C(C)=CC=CC(C)C(O)C(C)C(O)C(C)C(OC(=O)Nc2cccnn2)C1C)C4=O` (stereo not drawn) is reported as 56.2% (female CD-1 mouse, plasma; oral, 10 mg/kg).
`CCc1nc(N)nc(N)c1C#C[C@H](C)c1cc(-c2ccncc2)ccc1OC` gave a bioavailability of 8.4% (mouse, plasma; oral, 16 mg/kg, single dose).
`C[C@H]1CN(C(=O)c2cn(-c3ccnc(N)n3)c3cc(C#CC4(O)CCCCC4)ccc23)CCN1` has a bioavailability of 6.26% (CD-1 mouse, plasma; oral, 10 mg/kg).
`CCOC(=O)c1nc2cc(Cl)c(Cl)cc2nc1N1CCN(C(=O)Nc2ccc(N3CCNCC3)cc2)CC1` gave a bioavailability of 11.2% (male mouse, plasma; oral, 10 mg/kg).
With `N#Cc1ccc(-c2cc(=O)c3ccc4[nH]c(C(F)(F)F)nc4c3o2)cc1` the bioavailability was about 136% (CD-1 mouse, plasma; oral, 5 mg/kg).
The bioavailability of `O=C(Cc1ccc(-c2ccc(OCCN3CCOCC3)cc2)cn1)NCc1ccc(F)cc1` is reported as 116% (CD-1 mouse, plasma; oral, 10 mg/kg).

Excerpt of the above:
`C=C(C)C(=O)Nc1ccc(-c2c(-c3ccc(Oc4nccc(C)n4)cc3)c3c(N)ncnc3n2C)cc1` gave a bioavailability of 74% (nude mouse, plasma; oral).
`CCS(=O)(=O)c1ccccc1C(=O)N1CCN(c2nc3ccc(F)cc3s2)C[C@@H]1C` has a bioavailability of 72% (mouse, plasma; oral, 3 mg/kg).
